Measurements pooled from the literature.
A part holds a random share of what one study measured.
Chain of UniProt O14578 (whole entry, looked up): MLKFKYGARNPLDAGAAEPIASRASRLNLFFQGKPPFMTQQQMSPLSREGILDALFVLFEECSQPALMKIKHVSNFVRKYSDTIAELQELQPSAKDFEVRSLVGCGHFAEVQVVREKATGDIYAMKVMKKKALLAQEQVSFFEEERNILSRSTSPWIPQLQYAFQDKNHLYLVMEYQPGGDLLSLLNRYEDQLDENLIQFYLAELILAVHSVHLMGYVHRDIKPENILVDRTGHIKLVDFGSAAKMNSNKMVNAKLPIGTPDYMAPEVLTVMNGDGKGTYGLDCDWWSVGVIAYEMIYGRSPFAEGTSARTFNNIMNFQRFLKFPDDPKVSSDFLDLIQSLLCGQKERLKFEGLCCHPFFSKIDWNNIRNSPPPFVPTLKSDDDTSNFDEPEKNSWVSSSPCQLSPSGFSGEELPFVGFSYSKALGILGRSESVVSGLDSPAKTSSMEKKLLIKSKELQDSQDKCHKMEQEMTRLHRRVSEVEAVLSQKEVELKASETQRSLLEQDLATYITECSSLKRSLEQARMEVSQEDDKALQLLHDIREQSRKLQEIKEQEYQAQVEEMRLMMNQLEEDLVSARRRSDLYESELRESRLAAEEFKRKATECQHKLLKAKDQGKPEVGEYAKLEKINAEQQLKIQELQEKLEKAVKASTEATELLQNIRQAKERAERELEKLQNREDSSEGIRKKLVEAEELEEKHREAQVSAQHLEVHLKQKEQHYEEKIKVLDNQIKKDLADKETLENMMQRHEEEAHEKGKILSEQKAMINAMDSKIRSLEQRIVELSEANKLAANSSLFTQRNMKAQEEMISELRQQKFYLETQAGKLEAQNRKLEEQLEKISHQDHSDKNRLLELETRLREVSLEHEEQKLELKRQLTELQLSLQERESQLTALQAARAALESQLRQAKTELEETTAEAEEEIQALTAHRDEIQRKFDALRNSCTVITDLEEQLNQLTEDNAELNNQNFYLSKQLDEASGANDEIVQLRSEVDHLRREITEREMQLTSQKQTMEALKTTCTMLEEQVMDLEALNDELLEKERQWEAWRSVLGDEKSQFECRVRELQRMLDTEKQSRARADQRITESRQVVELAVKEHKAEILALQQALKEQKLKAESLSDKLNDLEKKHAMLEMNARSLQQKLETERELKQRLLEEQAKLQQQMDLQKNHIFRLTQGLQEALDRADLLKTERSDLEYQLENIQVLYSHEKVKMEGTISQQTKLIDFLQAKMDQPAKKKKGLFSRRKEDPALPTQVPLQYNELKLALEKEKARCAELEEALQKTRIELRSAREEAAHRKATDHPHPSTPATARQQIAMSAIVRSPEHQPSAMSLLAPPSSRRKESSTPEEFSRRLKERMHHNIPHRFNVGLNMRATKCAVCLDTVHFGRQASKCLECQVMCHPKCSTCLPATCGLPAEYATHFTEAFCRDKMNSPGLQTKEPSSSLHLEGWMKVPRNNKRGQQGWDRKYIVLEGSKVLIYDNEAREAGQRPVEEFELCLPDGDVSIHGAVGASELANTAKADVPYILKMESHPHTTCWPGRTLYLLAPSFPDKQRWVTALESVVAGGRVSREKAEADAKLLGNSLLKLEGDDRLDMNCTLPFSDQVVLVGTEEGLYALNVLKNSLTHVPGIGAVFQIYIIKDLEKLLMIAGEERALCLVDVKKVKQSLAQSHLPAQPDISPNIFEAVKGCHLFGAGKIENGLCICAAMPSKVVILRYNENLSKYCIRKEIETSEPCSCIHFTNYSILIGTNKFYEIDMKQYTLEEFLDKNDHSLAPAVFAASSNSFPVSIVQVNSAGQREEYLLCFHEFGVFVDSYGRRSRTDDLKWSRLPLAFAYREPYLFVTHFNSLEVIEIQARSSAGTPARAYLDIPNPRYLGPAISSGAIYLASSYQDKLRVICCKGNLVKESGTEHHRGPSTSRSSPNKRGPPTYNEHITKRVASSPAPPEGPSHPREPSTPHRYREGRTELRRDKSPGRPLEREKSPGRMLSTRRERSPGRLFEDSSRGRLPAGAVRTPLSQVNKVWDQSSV
Chain of UniProt O00329 (whole entry, looked up): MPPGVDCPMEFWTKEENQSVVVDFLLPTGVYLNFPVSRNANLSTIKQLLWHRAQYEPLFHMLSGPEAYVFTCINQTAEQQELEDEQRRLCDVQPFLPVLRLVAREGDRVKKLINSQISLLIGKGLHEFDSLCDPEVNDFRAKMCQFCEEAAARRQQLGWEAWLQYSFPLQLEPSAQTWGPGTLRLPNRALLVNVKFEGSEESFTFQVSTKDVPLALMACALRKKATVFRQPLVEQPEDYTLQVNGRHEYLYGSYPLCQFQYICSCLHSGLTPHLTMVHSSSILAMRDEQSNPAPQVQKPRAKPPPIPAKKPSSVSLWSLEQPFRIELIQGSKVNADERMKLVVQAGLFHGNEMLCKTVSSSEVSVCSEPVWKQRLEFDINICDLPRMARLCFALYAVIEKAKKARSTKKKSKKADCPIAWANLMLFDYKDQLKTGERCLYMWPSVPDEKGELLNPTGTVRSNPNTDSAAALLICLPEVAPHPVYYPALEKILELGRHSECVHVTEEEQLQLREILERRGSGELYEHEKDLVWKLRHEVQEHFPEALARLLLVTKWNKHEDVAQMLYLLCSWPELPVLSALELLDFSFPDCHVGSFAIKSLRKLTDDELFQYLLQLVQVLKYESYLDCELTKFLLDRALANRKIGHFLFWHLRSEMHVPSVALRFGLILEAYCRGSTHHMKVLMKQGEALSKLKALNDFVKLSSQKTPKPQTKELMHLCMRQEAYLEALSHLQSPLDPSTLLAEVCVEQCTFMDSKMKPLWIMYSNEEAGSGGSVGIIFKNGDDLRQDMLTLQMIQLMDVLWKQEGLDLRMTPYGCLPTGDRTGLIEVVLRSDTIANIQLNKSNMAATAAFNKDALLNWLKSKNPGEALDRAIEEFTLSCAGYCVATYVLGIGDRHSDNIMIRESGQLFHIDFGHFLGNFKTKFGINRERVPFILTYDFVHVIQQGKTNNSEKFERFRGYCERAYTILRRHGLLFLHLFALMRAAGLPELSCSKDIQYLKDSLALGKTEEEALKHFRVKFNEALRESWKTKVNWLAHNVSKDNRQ
Chain of UniProt O00750 (whole entry, looked up): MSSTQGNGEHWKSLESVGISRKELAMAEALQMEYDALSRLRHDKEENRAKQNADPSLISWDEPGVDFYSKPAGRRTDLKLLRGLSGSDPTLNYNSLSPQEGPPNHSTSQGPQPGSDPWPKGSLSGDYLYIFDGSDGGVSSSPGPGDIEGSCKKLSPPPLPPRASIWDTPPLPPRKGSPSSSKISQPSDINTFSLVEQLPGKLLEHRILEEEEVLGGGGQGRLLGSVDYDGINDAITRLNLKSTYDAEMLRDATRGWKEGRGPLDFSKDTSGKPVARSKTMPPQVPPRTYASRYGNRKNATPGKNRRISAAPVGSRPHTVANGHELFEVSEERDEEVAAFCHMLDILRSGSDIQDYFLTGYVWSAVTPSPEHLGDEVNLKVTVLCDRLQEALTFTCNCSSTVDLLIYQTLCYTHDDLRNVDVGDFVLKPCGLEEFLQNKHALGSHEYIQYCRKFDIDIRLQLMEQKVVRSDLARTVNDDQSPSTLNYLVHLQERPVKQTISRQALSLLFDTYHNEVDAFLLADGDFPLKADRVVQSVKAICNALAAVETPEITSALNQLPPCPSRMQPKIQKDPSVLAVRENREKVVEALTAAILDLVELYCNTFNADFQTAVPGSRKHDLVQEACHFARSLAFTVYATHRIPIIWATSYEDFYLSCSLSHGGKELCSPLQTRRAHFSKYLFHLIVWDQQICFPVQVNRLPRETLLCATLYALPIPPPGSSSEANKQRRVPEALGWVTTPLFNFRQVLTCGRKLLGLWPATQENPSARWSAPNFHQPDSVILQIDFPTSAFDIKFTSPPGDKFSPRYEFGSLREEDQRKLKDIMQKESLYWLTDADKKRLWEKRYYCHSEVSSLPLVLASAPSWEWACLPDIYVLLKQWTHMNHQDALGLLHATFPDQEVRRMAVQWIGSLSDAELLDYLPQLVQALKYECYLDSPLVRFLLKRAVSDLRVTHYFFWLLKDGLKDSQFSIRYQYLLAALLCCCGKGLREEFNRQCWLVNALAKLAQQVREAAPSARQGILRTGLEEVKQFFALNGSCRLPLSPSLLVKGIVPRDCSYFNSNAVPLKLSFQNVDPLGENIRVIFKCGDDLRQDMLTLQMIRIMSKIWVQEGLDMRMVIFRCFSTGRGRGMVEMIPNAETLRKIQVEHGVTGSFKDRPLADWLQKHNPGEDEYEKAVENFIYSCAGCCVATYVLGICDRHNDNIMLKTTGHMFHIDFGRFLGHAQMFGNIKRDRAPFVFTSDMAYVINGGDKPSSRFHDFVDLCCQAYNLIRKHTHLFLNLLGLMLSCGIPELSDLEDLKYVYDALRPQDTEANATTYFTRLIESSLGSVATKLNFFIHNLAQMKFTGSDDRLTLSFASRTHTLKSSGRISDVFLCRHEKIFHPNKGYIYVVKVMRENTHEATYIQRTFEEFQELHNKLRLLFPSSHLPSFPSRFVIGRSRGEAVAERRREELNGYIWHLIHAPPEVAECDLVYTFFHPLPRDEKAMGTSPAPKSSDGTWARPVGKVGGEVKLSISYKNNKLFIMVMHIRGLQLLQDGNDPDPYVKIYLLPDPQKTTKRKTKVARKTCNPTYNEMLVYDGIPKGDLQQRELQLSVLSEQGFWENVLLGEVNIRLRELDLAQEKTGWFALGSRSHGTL
Chain of UniProt P0C264 (whole entry, looked up): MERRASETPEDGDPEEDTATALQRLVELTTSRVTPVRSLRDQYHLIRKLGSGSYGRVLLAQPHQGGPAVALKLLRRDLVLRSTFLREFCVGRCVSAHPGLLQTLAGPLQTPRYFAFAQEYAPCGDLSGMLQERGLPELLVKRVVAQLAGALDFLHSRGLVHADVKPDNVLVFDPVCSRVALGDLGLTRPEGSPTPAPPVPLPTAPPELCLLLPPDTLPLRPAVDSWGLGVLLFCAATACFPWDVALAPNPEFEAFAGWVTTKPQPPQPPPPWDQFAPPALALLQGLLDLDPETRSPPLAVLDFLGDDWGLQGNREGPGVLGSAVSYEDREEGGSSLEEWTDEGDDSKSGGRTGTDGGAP

Set 1
Cell line: A-375
Concentration: 100 µM
Time: 36 h
| SMILES | viability [%] |
| --- | --- |
| Cc1cc(-n2c(=O)[nH]c(=O)n(C)c2=O)ccc1Oc1ccc(SC(F)(F)F)cc1 | 12.6 |
| NC[C@H]1O[C@H](O[C@H]2[C@H](O)[C@@H](O[C@H]3O[C@H](CO)[C@@H](O)[C@H](N)[C@H]3O)[C@H](N)C[C@@H]2N)[C@H](O)[C@@H](O)[C@@H]1O | 109 |
| CCN[C@@H]1C[C@H](N)[C@@H](O[C@H]2OC(CN)=CC[C@H]2N)[C@H](O)[C@H]1O[C@H]1OC[C@](C)(O)[C@H](NC)[C@H]1O | 98.6 |
| Cc1cccc(CN2CCN(C(c3ccccc3)c3ccc(Cl)cc3)CC2)c1 (stereo not shown) | 58.4 |
| CC(=O)OCC(=O)[C@@]12N=C(C)O[C@@H]1C[C@H]1[C@@H]3CCC4=CC(=O)C=C[C@]4(C)[C@H]3[C@@H](O)C[C@@]12C | 101 |

Set 2
Target: Interferon regulatory factor 7, full length, phosphomimetic (IRF7, Homo sapiens, UniProt Q92985, residues 1-503, S101K/S471D/S472D/S475D/S476D/S477D/S483D/S484D/S487D)
Method: protein-binding microarray
Form: double-stranded DNA, one strand shown
Medium: in vitro
Concentration: 250 nM
Setting: 60-bp whole probe
Together with: salmon DNA 0.4 mg/ml
Relative to: random background probes
Reading: higher = stronger binding
Constant ends, left off below: GCCTAGCAC … GTCTTGATTCGCTTGACGCTGCTG
Residues (chain): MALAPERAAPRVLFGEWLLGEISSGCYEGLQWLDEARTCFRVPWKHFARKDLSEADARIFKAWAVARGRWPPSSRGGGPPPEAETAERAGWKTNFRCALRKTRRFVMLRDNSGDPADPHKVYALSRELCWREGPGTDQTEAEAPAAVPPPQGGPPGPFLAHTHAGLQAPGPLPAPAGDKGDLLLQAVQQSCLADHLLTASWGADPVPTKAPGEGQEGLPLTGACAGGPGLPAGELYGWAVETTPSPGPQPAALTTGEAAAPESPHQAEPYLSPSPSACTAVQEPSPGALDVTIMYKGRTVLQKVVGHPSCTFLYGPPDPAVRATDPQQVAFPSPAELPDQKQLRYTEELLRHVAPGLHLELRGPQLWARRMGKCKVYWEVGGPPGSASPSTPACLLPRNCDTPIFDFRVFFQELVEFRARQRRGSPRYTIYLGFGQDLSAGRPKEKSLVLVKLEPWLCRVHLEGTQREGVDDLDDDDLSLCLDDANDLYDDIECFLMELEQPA
| Strand | log fluorescence [z-score] |
| --- | --- |
| TATTTTATATGCTATGTACTGGTGCTA | 0.858 |
| GACGGTCTCGGACTGGGGAAGTGCTAG | 0.177 |
| GACGATTTCGGGTTGCGAGACGTGCTA | 2.35 |
| TCTTTTTTTCTTTTATTAGTGTGCTAG | 2.09 |
| TTTGATCTCAGACTGGATTAGTGCTAG | -0.088 |
| TTAGGTTCCCTTTTCCTGTAGTGCTAG | 3.94 |
| GACGGTTTCCTAATGCTGACGTGCTAG | 2.75 |
| AGTAGCTGGGATTACAGGCAGTGCTAG | -0.863 |

Set 3
Host: human
Medium: microsomes or S9
Concentration: 2 µM
Time: 0.5 h
| SMILES | remaining compound [%] |
| --- | --- |
| CC(Nc1ncnc2c1NC(=O)CN2)c1cc2ccccc2nc1-c1ccccc1 (stereo not shown) | 9.59 |
| CN1Cc2cc(NCc3c(Cl)cnn3C)ccc2NC1=O | 75.4 |
| O=S(=O)(NC1CCCCC1)c1ccc(-c2nnc(C3CCC3)o2)s1 | 20.5 |
| Nc1nc(N2C(=O)C3CC=CCC3C2=O)nn1-c1ccccc1 (stereo not shown) | 99 |

Set 4
Compound: CN([C@@H]1CCc2c(CC(=O)O)c3cc(S(C)(=O)=O)ccc3n2C1)S(=O)(=O)c1ccc(F)cc1
Observed: cell-free assay
Method: competition with immobilised ligand
Concentration: 1 µM
| target | remaining binding |
| --- | --- |
| PRKCD (Homo sapiens, UniProt Q05655) | 100% |
| KIT (Homo sapiens, UniProt P10721, T670I/V559D) | 100% |
| PIK3CD (Homo sapiens, UniProt O00329) | 100% |
| Ribosomal protein S6 kinase alpha-4, C-terminal kinase domain (RPS6KA4, Homo sapiens, UniProt O75676) | 97% |
| PIK3CA (Homo sapiens, UniProt P42336, H1047Y) | 90% |
| Ribosomal protein S6 kinase alpha-3, N-terminal kinase domain (RPS6KA3, Homo sapiens, UniProt P51812) | 80% |
| CIT (Homo sapiens, UniProt O14578) | 96% |
| SGK3 (Homo sapiens, UniProt Q96BR1) | 85% |
| MAP3K14 (Homo sapiens, UniProt Q99558) | 76% |
| HIPK2 (Homo sapiens, UniProt Q9H2X6) | 100% |
| PIK3C2B (Homo sapiens, UniProt O00750) | 100% |
| SBK3 (Homo sapiens, UniProt P0C264) | 49% |
| PLK2 (Homo sapiens, UniProt Q9NYY3) | 90% |
| NEK11 (Homo sapiens, UniProt Q8NG66) | 100% |
| MET (Homo sapiens, UniProt P08581) | 100% |
| TAOK1 (Homo sapiens, UniProt Q7L7X3) | 95% |
| MAP4K5 (Homo sapiens, UniProt Q9Y4K4) | 100% |

Set 5
Organism: Sarcocystis neurona
Observed: parasite growth
Concentration: 10 µM
Setting: secondary screen
| Structure (SMILES) | inhibition |
| --- | --- |
| C/C(=C\C(=O)OCCCCCCCCC(=O)O)C[C@@H]1OC[C@H](C[C@@H]2O[C@H]2[C@@H](C)[C@H](C)O)[C@@H](O)[C@H]1O | 4% |
| Fc1ccc([C@@H]2CCNC[C@H]2COc2ccc3c(c2)OCO3)cc1.O=C(O)/C=C\C(=O)O | -5% |
| COC(=O)C[C@](O)(CCCC(C)(C)O)C(=O)O[C@@H]1C(OC)=C[C@]23CCCN2CCc2cc4c(cc2[C@H]13)OCO4 | 98.9% |

For quick reference, copied from above (set 4):
| target | remaining binding |
| --- | --- |
| SBK3 (Homo sapiens, UniProt P0C264) | 49% |
| KIT (Homo sapiens, UniProt P10721, T670I/V559D) | 100% |
| TAOK1 (Homo sapiens, UniProt Q7L7X3) | 95% |
| MAP4K5 (Homo sapiens, UniProt Q9Y4K4) | 100% |
| HIPK2 (Homo sapiens, UniProt Q9H2X6) | 100% |
| PIK3CA (Homo sapiens, UniProt P42336, H1047Y) | 90% |
